Results gathered from unrelated publications.
Parts stem from different laboratories: compare values within a part only. Substitutions count along the parent as printed.

Series 1
Target: Histone acetyltransferase KAT6A, both winged helices, GST fusion (KAT6A, Homo sapiens, UniProt Q92794, residues 1-181)
Technique: protein binding microarray
Form: double-stranded DNA, one strand shown
Medium: in vitro
Tested at: not given
Setting: 8-mer, flanks averaged, mean of 2 arrays, mostly near background
Reference: not given
Direction: higher = stronger binding
Construct (chain): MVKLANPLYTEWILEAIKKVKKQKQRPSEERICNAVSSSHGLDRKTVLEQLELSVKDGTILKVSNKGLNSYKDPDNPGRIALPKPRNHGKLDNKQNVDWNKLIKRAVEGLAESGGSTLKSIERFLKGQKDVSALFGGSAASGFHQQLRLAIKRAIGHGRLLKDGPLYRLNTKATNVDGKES
Oligonucleotide	E-score
AGAACTCT	-0.0794
ACTATATG	-0.141
TCCCTCCA	-0.122
CCGCGCAG	0.336
TAATTCTA	-0.116
ATCATCTA	0.024
AAAAACTG	-0.0959
CCAGACTA	-0.184
CTAGGTGA	-0.177
AAAATACG	0.0068
AGCTGTAT	-0.189
AGTTCTAA	-0.0164
AGGTCGAG	-0.164
CGGTCGAC	0.227
GAGACACC	-0.149
CCACATAG	-0.0666
ACGTTAGG	-0.0461

Series 2
Target: CCNA2, cyclin fold, Cln2 fusion (human)
Technique: yeast growth competition, sequencing
Medium: yeast
Setting: strong parent motif
Reference: not given
Direction: higher = stronger binding
Parent: CCP110 docking peptide (human); EKVKRRLDLDIDG; partner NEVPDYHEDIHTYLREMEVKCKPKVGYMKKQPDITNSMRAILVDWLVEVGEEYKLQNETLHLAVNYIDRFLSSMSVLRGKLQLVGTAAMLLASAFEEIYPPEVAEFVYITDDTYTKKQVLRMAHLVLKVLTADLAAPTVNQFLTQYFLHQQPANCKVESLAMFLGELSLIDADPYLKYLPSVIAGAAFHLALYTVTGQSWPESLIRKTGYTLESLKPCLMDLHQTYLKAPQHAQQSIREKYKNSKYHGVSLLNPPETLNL
Substitution	normalised enrichment score
G13A	4.46
R5A	0.312
R6A	1.57
E1A	5.2
D10A	3.62
D8A	3.16
L9F	5.84

Series 3
Target: RNA binding protein fox-1 homolog 2, RRM domain, GST-SBP tag (RBFOX2, Homo sapiens, UniProt O43251-10, residues 100-194)
Technique: RNA Bind-n-Seq
Form: RNA
Medium: in vitro
Tested at: 365 nM
Setting: natural RNA segment, single round, ends assumed
Reference: no-protein control
Direction: higher = stronger binding
Constant ends, left off below: GGGAGUUCUACAGUCCGACGAUC … UGGAAUUCUCGGGUGCCAA
Construct (chain): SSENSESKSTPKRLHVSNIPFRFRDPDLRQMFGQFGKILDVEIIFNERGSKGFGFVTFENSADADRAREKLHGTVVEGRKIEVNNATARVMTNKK
Oligonucleotide	RBNS enrichment (R)
AACUGUUAUUAGUAUAGAAGUGGCUUAAAGAAAAGCAUCUUCAAAUACUUGACUUAGCAUAUCUUUCUUCUUUAGACUUACAUAAUGAUAUUCAUCUCUCCAUUAGCAAU	0.49
GUGUUUUAAGAAGCACAUGGCCUCAUUUUCCUUAGAAACAAGACAAAGCCUUUUUAAAAUGUUUUUUUUUCACUUUAAAAUAGGGUAUUCAAAGUGGAGUAACGUGUAUU	0.428
GAAAAAUAAUUUAGCUGUGUUUUAGACAGCAUUAGAAUAUAUUGUUCAGCACAGUAAAAUAUAUUUGAAAUUUGAUAAGCCAAAAAUGUGGUUUUGAAUGAAUAUUUUGU	0.945
AGCUGGAUUUUCAAAAGCUUCAAAGUCUUGGUCUGUGAGUCACUCUUCAGUUUGGGAGCUGGGUCUGUGGCUUUGAUCAGAAGGUACUUUCAAAAGAGGGCUUUCCAGGG	0.517
AAGAACCCACUGCUCACAGCACUGAUGGCUUGGUUCUCCCAGAUUCUAUCCCCUGGAACUUAUGCAUUACAUGUAUUCAGAUAGUAUCUCAACGAUUAUAGAGAGCCUUU	0.481
CUCCCUGGAUACUCUUGGCCCACCGCAGAUCUGUAGCCAGUCAGAGGAGGAGGAGAAGGAGCCCCUCAGCAGAGUGGUGCAGUUUCGCUCAGAGCUUGUCUCCUUGGCUU	0.524
UCAGACCUGGAGUGCUCCCCAACCCCCACCUAUCAAAGCUGCUUUCAAGGUCAGGGUCAGCCCCAGCUGUGGCAGAGAAGACUCAAGUCUGGUGCCUGGCCUCUGCACUG	0.262
GUAGCUGGGUACAUUCCCCGUCAGUGUGACUUCCUUUCAUUUUGACAACUUCCUUCCUUUAAGAUGCUAAGUGGUGAACUUUACUGUUUUGUACAGUGAACUGUGACUUU	0.497
GAGCUCAGCAUGUCACGGCAAGGACUGCCGCAUUGGUGAUGGAGGGCCAGCUGAGGGGAAGUUGCUGGUGAGUUUCCUUUUCUCCAUUUCUAGCAUAUGGACACCUGGCC	12.6
GACUUGUCACAGUAGAGAUGCUGACAAACCACAUGUGGGAUUGCUAUGCUCCAAGGAUCACCUCAGUUCUCUCUCAGAUUCUGGAAACAGAUGAAAUGCUCUUUGCAUUG	0.197
UAGACCUUAAAACUGUGCUGCCUUAGUGGUAAGUAAGGGGUGGGGGUUGGACAGUGAAUCUUAAGAUUUCAUCCUUCAUUCAGUAAGCAUUUGAGUACCUACUGUGAGCA	0.434
UGCUAUGCGCCCUAUUAGGAAGAGAGAGAGAGAGAAAGAGAGAGAGAGAGAAUGAGUCCUCCCUCAGUUGCUGCCUCUCACUCCUGGUGACAUGGUGCCACCCAAGCUUG	3.64

Further values, each from its own experiment
Molecule	target	test	system	conditions	scale	endpoint	value
PhoQ, residues 284 288 289 292 302 303 SCEHLI	PhoP, residues 12 14 15 18 19 NIMAP (Escherichia coli, UniProt P23836)	Sort-seq, item: YFP reporter	E. coli	PhoQ-PhoP variant library, together with: 10 µM Mg2+	reference: high Mg2+ state, higher = stronger signaling	fold induction	0.678
